Measured values pooled from the literature.
A part holds a random share of what one study measured. Changes are numbered by the printed parent chain.

Series 1 — target: CCNA1, cyclin fold, Cln2 fusion (human); technique: yeast growth competition, sequencing; sample: yeast; notes: weak parent motif; reference: not given; reading: higher = stronger binding
Starting sequence: PKN2 docking peptide (human); VSAVQKLDFSDTM
| Change | normalised enrichment score |
| --- | --- |
| V1W | 0.0284 |
| F9Y | 0.51 |
| D11M | -0.0251 |
| L7V | 0.151 |
| S2I | 0.238 |
| S10N | 0.0404 |
| F9H | 0.119 |
| L7I | -0.0571 |
| D11E | 0.258 |
| L7Q | 0.0601 |
| S2F | 0.0119 |
| K6D | 0.124 |
| D11C | 0.334 |
| T12N | 0.11 |
| M13L | 0.188 |
| V1A | 0.158 |
| L7Y | 0.0806 |
| D11N | 0.334 |
| F9G | 0.354 |
| V4Y | 0.284 |
| M13H | 0.106 |
| L7D | 0.259 |
| F9M | 0.295 |
| T12D | 0.026 |
| M13Q | -0.0902 |

Series 2 — technique: RNA Bind-n-Seq; form: RNA; sample: in vitro; concentration: not given; reference: input RNA pool; reading: higher = stronger binding
Target: RING finger protein unkempt homolog, zinc fingers 1-6, GST-SBP tag (UNK, Homo sapiens, UniProt Q9C0B0, residues 30-357)
Sequence of UniProt Q9C0B0 (30-357, looked up): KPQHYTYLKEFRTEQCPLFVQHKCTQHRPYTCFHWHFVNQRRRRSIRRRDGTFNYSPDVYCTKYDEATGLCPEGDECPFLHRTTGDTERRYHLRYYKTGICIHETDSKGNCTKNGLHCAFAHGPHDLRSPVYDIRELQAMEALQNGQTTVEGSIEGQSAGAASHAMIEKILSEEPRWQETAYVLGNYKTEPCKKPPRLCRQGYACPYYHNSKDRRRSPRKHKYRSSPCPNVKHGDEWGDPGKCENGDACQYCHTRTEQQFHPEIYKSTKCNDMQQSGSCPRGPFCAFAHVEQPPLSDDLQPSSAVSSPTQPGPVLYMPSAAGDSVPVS
Notes: RNA with constant flanks, human-mouse chimeric sites, ends assumed
All sequences stand within: GGGAGUUCUACAGUCCGACGAUC … CAACAGAGGAUUGAGCAUCA
| Sequence | bound/input enrichment |
| --- | --- |
| GUAGCUGGGACUACAGAAAUGCUGGUAAUUUCAGUCACUUGCUGAUGACUUCUGAUGUCCCAGCAAAUAAUGCCACAGUUGACUGCUGAGAAGAUACUUCUGAGGACCCACGUCUAAGGU | 0.129 ratio |
| CGCUGGCCCAAGCUGAUGUAAAUGUUUGGCCUCCAUCUCUCAGGCACGUGUGCCUUCUCUUAGUCCCUGUUUUCGGGAUGUUAUGAAUCUCAGUACUGUGGUUUGAAAGCACCAGCUUUG | 0.146 ratio |
| CACAGAGCAGCACCUACCCCCUCCUCCUUUCCACACCUGCAAACUCUUUUGCCUGGGCUGCAUAGUUAGUGUAAUUACAUCUCAGCUUUGAGGGCUCCUGUGGCAAAUUCCCGGAUUAAA | 0.973 ratio |
| UGUGAACUGUCUCUUGAGAUCUAAAAACAAGAUGACUUUUCCUGGCACAUAUUCCAAAGCAAAGACUUUGUUACCUGCUGCUUCUUGUCUAAUUUACAGGGAUAUUUAAUUUUGUCAGGU | 0.136 ratio |
| UGUGAACUGAAAGGUGUGAUCUAAAAACAAGAUGACUUUUCCUGGCACAUAUUCCAAAGCAAAGACUUUGUUACCUGCUGCUUAUUGUCUAAUUUACAGGGAUAUUUAAUUUUGUCAGGU | 0.114 ratio |
| AAAGAGUGGAUAGAGUGUGCACAUGGAAUCGGUGGGACUCGGGCAGAAAAGGAGUGCAAGAUAGAGUUCGAUGACUUCGAAGAGUGCUUGCUUCGGUACAAAACGAUGAGGCGAAUGCAU | 0.344 ratio |
| AAACAUCUGUCUUUAAGCAUUCCAAGCGAGAAUGCUGGGGUGAUCAUAAUUACCCACGUGCCUUCUGACUGAGCUUUAAUGCUGUUCCAUGUUACAUCUUUCCUUCACUCCAGAAUUGUU | 0.134 ratio |
| CACUCGAGGGCUGCCGUUUUCUGUUUCUCCCUGGGCUGCGGAAAGCCAGAAGAUUUUAUCUAGCUUAUACAAGGCUGCUGGUGUUCCCUCUUUUUUUCCACGAGGGUUUUUUUUCCAGCA | 0.356 ratio |
| UUUGUAUUUAUGCUAAGCACACGUGCUGGUGGUCUUGGCAUCAAUCUUGCAACUGCUGAUGUAGUCAUUUUAUAUGAUUCUGAUUGGAAUCCGCAAGUUGAUCUUCAGGCUAUGGACCGU | 0.232 ratio |
| CCCCAAUACCAUUUGCAGGUCUGGAACUGCACUCUCUUUAAAGUUUUACAUGUAUACAUUUUAGGGCUGUAGAUUUAUUUUCCUGGUUUUGUUUUUCUUGCUUAUUCUUUGAGCACAGAA | 2.34 ratio |
| UAAAUUAGGGCUGCCGUCCGUUCUCACUCCCUGGGCUGCGGAAAGCCAGAAGAUUUUAUCUAGCUUAUACAAGGCUGCUGGUGUUCCCUCCCUCCCGCCACGAGGGUGUUUUUGGCUGCA | 0.437 ratio |

Series 3 — technique: aptamer microarray, sandwich; form: DNA with 2'F-ANA; sample: in vitro; concentration: 200 nM; added: Cy3 exosite-II aptamer, 400 nM; reading: higher = stronger binding; sequence: GGTTGGTGTGGTTGG
Target: Prothrombin, mature alpha-thrombin (F2, Homo sapiens, UniProt P00734)
Notes: whole 15-mer aptamer, many near background
| Modification | mean fluorescence intensity [a.u.] |
| --- | --- |
| 2'F-ANA at 1 2 3 4 6 7 8 12 13 14 15 | 99.2 |
| 2'F-ANA at 1 4 10 11 12 14 15 | 74.3 |
| 2'F-ANA at 2 3 10 11 12 13 14 | 236 |
| 2'F-ANA at 2 3 4 5 6 11 12 14 | 54.9 |
| 2'F-ANA at 2 4 8 11 13 15 | 210 |
| 2'F-ANA at 1 2 3 5 6 7 14 | 46.5 |
| 2'F-ANA at 1 2 4 8 11 14 15 | 105 |
| 2'F-ANA at 2 3 6 8 10 13 14 | 256 |
| 2'F-ANA at 2 3 5 6 8 9 14 15 | 52.6 |
| 2'F-ANA at 1 4 6 7 8 9 11 14 15 | 110 |
| 2'F-ANA at 4 5 7 8 11 14 | 54.1 |
| 2'F-ANA at 1 2 6 7 13 14 | 48.8 |
| 2'F-ANA at 2 3 4 5 8 12 15 | 221 |
| 2'F-ANA at 1 2 4 5 7 9 11 12 | 104 |
| 2'F-ANA at 4 6 7 8 9 13 14 15 | 76.8 |
| 2'F-ANA at 1 4 6 7 12 13 | 201 |
| 2'F-ANA at 4 5 6 8 10 11 12 13 14 | 49.5 |
| 2'F-ANA at 5 11 13 | 56.6 |
| 2'F-ANA at 1 3 5 6 7 8 9 10 11 14 | 55.7 |
| 2'F-ANA at 1 2 4 5 6 8 11 13 | 111 |
| 2'F-ANA at 1 2 6 8 9 11 13 15 | 119 |

Series 4 — technique: RNA Bind-n-Seq; form: RNA; sample: in vitro; concentration: 365 nM; reference: no-protein control; reading: higher = stronger binding
Target: RNA binding protein fox-1 homolog 2, RRM domain, GST-SBP tag (RBFOX2, Homo sapiens, UniProt O43251-10, residues 100-194)
Notes: natural RNA segment, single round, ends assumed
All sequences stand within: GGGAGUUCUACAGUCCGACGAUC … UGGAAUUCUCGGGUGCCAA
Construct (chain): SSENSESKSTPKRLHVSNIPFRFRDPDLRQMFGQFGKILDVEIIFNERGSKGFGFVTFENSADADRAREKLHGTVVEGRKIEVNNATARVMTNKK
| Sequence | RBNS enrichment (R) |
| --- | --- |
| UAGUGUCAGUUAACUAUAAGGAAGUUCCGGAGAGGUAAAGCUCAGGAAAGAUGUAAUGCAAAGCUGAUUGUUUAAUGUCUUACAGAUUUACACUGUCUUUAAAAGGCCAA | 0.283 |
| UCCACAUGGAUGACCAGGAACCUGGUCUUGUUGGAGCUGGCAUAGGAGGUUCUACUGUCUUGUCGUCCACUCUUGUCCCUCCCUUCUGUUAUCAAAGUUAAAGCGCCUCU | 0.539 |
| GUUGCGGACAGCCCGCUCCACUCUCCACCCUGUACUCCAUAAAUAAAGCUACGUGCUUCUGCCCUGACGCACCAGCGCUCAUUUGUUUCUUGGUCUUUUUGAAGUUUCAC | 0.917 |
| GGGCAUGAACUGAGGAUUGUAUUGAAGACUGUGGUUUUUAAGCCUCGCUGUAAAGAAAGGCCAUGCUUUUGUGUUAGUGGAGACAGUCUAGAGUUGCUCAGAAUCUUGUA | 0.913 |
| UUUCACUCCACUAAUGCUGUCUCAGUGUUUUCUCUCUCUCUCUUUCGAGCUUGCACUCCGGUACCCGACCCGGCGCCCUGGCCCAUCCCAUGCCGGGGGGCCAGUGGAAA | 0.86 |
| UUGGCUGGGGGUGGCUGGGAAAGGCCCCUCUGGGAAAGAGACAGUUUUACUGAGUCAGAUGGUGGAAAGACAGAUGUCUCUAUACUUUCUUAACAAGCCACUCUGUCCCA | 0.245 |
| CAAGUGCCCCCUCACCUCUCCAGGUGCUCAUUGUAACCAUUUCUCACUAGUGUCAGGCCCCCAGUGGGACCACAUGCCACUGCCUGCACCUUUCGGCAGAGGAACCCCCA | 0.704 |
| AGCUGUGAAUGAAGAGGUUUCCUCUUUAAACCUGUCUGGUGGGCCCCCAGAUAUCCUCACCUCAGGGCCUCCUUUUUUUGCAAACUCCUCCCCUCCCCCGAGGGCAGACC | 0.256 |
| AGGGCCAGUCCAGGCUGUCAGCCCAUGCAGCUGACACUGGUUGGUCUCUCAGUAUGUGGGAAAUCCAGGCAAGUUUUAGAAUGUCCUAAAUUGAGCUAUUUUCACUUACU | 0.377 |
| ACAGCAUGCUACAGGACAGACCUGCUCUGGAAGCCUGUCAUAGUAAGGCUGGCGUGGCACGUUUGGGGACUCUGCCAGUCGGAGUUGCUGGGCACAUGCUGUGUACCACC | 0.614 |
| AUGCAUGACUAAAAAGGCUUGAAGUUGCUUGUGAGCAAGAAGCUUUUUAUGCUGCUUUCUUACAUAGUUUCUCUUCAUUUUCACUUAACUCUGAAGACAACCAAAAGAAC | 5.23 |
| CGAGGCUUCUCCCUUCUGCAAGGGGGUGGUCCCCUAUACCCGAGGAAUCUUUCUCUAGGGCACCUGGGCUCACAGCCUCCCUGGGCUCGGUUGUUCCUGCUGCCAAGUGC | 0.237 |

Some of these lines once more (series 3):
| Modification | mean fluorescence intensity [a.u.] |
| --- | --- |
| 2'F-ANA at 1 2 3 4 6 7 8 12 13 14 15 | 99.2 |
| 2'F-ANA at 4 6 7 8 9 13 14 15 | 76.8 |
| 2'F-ANA at 5 11 13 | 56.6 |
| 2'F-ANA at 2 3 4 5 8 12 15 | 221 |
| 2'F-ANA at 2 3 5 6 8 9 14 15 | 52.6 |
